Published values collected from several papers.
Parts stem from different laboratories: compare values within a part only.
Chain of UniProt Q9UKS7 (whole entry, looked up): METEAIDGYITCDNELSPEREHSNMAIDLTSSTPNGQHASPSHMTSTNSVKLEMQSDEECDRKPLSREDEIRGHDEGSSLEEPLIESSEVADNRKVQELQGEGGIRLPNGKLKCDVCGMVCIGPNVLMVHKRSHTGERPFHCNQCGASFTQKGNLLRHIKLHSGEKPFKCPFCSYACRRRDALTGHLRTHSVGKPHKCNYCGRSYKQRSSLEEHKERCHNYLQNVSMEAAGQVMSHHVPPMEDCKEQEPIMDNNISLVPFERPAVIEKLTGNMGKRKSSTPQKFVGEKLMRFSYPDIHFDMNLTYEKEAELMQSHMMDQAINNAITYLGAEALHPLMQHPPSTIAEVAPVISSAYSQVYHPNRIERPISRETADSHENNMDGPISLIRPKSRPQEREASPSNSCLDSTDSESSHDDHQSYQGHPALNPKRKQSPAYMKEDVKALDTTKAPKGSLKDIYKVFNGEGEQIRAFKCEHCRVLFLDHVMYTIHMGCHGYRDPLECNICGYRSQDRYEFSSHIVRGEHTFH
Chain of UniProt Q96SW2 (whole entry, looked up): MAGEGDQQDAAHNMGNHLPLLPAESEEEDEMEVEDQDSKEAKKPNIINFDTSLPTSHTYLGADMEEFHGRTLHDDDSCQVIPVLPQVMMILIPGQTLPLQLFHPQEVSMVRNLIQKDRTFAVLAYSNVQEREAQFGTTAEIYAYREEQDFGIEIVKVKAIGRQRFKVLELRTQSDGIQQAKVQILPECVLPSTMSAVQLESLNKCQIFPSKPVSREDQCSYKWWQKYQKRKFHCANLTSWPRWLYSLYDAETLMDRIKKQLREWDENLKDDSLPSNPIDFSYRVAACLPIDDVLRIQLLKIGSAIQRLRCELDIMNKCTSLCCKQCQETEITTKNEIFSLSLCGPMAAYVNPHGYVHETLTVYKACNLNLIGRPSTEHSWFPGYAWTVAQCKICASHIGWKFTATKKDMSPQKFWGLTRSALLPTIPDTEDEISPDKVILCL

Study 1
Target: Beta-1 adrenergic receptor (ADRB1, Homo sapiens, UniProt P08588)
Chain of UniProt P08588 (whole entry, looked up): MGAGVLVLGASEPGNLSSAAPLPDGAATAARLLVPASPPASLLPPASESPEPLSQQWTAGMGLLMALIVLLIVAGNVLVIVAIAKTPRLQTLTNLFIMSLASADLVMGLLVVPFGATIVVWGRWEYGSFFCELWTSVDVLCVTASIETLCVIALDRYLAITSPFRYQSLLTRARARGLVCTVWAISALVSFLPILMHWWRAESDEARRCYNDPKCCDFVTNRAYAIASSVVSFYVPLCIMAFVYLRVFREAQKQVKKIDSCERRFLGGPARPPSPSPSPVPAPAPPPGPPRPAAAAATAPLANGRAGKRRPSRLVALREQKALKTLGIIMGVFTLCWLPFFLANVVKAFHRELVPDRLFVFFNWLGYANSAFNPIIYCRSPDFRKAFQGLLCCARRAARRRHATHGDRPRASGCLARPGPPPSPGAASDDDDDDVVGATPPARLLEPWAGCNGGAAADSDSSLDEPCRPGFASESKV
Action: agonist
Endpoint: EC50
NCCc1c[nH]c2ccc(O)cc12: ≥ 100 µM
NCCc1cc(=O)oc2cc(O)c(Cl)cc12: ≥ 100 µM
CC[C@H](C)C(NC(=O)[C@H](CCC(=O)O)NC(=O)[C@@H](NC(C)=O)C(C)C)C(=O)N[C@@H](CC(=O)O)C(=O)Nc1ccc2c(C)cc(=O)oc2c1 (stereo partly drawn): ≥ 100 µM

Study 2
Organism: Sarcocystis neurona
Read-out: parasite growth
Concentration: 10 µM
Time: 96 h
Notes: first screen
Relative to: untreated
Endpoint: log2 fold change
Oc1cc(Cl)ccc1Oc1ccc(Cl)cc1Cl: -0.25
C[C@H]1CCC[C@H](O)CCCCCc2cc(O)cc(O)c2C(=O)O1: -0.57
O=c1c(-c2ccccc2)c1-c1ccccc1: -0.61
CN1CCN(CC/C=C2/c3ccccc3Sc3ccc(S(=O)(=O)N(C)C)cc32)CC1: -2.87
c1ccc(Cn2ccnc2)cc1: 0.00249

Single results of other studies
CDPK1: Calcium-dependent protein kinase 1 (CDPK1, Plasmodium falciparum, UniProt P62344)
Chain of UniProt P62344 (whole entry, looked up): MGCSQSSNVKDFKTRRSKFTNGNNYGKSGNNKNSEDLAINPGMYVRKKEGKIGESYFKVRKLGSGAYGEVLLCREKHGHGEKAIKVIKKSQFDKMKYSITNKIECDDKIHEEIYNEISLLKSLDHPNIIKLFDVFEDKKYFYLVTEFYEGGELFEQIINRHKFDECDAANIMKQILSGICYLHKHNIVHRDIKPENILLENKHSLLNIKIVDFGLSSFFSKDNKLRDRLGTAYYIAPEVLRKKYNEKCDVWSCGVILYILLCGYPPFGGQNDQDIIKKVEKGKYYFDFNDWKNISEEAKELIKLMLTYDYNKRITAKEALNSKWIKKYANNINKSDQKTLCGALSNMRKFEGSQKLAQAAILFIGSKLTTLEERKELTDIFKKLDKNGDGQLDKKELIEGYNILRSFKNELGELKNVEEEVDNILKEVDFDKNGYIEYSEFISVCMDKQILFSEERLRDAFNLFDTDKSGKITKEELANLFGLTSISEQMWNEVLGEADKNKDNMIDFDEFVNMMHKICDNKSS
Cc1nc(Cc2cccc(C(F)(F)F)c2)sc1-c1ccc(C(N)=O)nc1  remaining binding (CDPK1; cell-free assay, competition with immobilised ligand; 1 µM): 100%
O=C1CCC(N2Cc3c(ccc4c3OCC43CCN(Cc4ccccc4)CC3(F)F)C2=O)C(=O)N1 (stereo not drawn)  protein remaining (CRBN/Zinc finger protein Helios (Homo sapiens, UniProt Q96SW2+Q9UKS7); degrader, HiBiT; HEK293; 13.72 nM): 90.2%
C[C@@H](c1cccc(C#N)c1)n1cc(Cl)cc(C(N)=O)c1=N  remaining binding (CDPK1; cell-free assay, competition with immobilised ligand; 1 µM): 78%
C[C@]12C=CC(=O)C=C1CCC1C2CC[C@]2(C)C(=O)CCC12 (stereo partly drawn)  remaining compound (human, microsomes or S9; 2 µM, 0.5 h): 60.8%

A few entries again (study 2):
Oc1cc(Cl)ccc1Oc1ccc(Cl)cc1Cl: -0.25
